{"data": "Measured values from different studies", "note": "A part holds a random share of what one study measured. Positions count from the first letter of the parent shown."}
{"data": "Study 1", "target": "Sal-like protein 4, full length isoform A (SALL4, Homo sapiens, UniProt Q9UJQ4, residues 1-1053)", "technique": "universal PBM", "molecule type": "double-stranded DNA, one strand shown", "sample": "in vitro", "concentration": "600 nM", "setting": "8-mer, flanks averaged, mean of replicates", "direction": "higher = stronger binding", "sequence of UniProt Q9UJQ4 (whole entry, looked up)": "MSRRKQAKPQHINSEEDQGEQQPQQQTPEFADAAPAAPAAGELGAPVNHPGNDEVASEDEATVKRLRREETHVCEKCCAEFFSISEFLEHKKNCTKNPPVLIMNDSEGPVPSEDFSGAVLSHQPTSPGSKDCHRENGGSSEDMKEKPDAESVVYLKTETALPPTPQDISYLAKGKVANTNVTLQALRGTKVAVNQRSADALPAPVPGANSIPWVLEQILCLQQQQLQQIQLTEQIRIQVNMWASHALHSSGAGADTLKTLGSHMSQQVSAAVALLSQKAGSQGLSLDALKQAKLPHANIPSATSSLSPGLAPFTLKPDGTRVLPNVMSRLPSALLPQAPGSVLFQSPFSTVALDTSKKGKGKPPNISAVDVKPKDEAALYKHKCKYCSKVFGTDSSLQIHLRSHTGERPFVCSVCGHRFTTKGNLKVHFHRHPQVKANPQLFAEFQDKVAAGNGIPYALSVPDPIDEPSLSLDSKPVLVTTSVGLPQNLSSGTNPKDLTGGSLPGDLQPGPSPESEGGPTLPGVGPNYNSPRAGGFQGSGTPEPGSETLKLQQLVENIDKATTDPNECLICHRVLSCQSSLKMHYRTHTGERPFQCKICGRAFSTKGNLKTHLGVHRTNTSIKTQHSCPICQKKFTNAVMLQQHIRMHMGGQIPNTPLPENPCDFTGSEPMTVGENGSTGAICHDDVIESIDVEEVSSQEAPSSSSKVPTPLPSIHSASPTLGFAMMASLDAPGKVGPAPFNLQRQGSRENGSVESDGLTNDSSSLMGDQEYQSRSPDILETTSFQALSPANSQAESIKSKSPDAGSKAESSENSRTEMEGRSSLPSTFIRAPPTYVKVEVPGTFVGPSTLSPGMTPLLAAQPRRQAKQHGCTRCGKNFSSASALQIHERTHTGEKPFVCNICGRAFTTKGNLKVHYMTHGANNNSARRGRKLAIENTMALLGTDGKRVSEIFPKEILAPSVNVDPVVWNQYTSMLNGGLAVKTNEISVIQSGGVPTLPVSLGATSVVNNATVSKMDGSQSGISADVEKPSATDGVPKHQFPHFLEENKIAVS"}
{"Sequence": "TAAGAGGA", "E-score": 0.102}
{"Sequence": "GGGACGCA", "E-score": -0.221}
{"Sequence": "GCGTTTAC", "E-score": -0.136}
{"Sequence": "ACCCTACT", "E-score": -0.101}
{"Sequence": "GCCGTTAC", "E-score": -0.144}
{"Sequence": "GGCAGGCC", "E-score": -0.391}
{"Sequence": "CGCTGTCA", "E-score": -0.335}
{"Sequence": "GGGTAAAC", "E-score": -0.0609}
{"Sequence": "AACTGCTT", "E-score": -0.0532}
{"Sequence": "GTATGCAC", "E-score": -0.011}
{"Sequence": "CATAAGAC", "E-score": 0.253}
{"Sequence": "CTGGCTTC", "E-score": -0.226}
{"Sequence": "CGTCATCA", "E-score": 0.114}
{"data": "Study 2", "target": "RNA binding protein fox-1 homolog 2, RRM domain, GST-SBP tag (RBFOX2, Homo sapiens, UniProt O43251-10, residues 100-194)", "technique": "RNA Bind-n-Seq", "molecule type": "RNA", "sample": "in vitro", "concentration": "365 nM", "setting": "natural RNA segment, single round, ends assumed", "relative to": "no-protein control", "direction": "higher = stronger binding", "constant ends, left off below": "GGGAGUUCUACAGUCCGACGAUC … UGGAAUUCUCGGGUGCCAA", "Target sequence (chain)": "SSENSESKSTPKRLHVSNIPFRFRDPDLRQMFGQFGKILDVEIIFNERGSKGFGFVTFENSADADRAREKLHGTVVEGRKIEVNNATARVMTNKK"}
{"Sequence": "UUAUAAUAAAAGCCUUACGGACAAACCUACUGUGGGCUCCAGCCUUUGUCCUGAGAUAGCCAAGCGGAGAAUGGGCAGUUUCUUUACCAGUUUGUGAGAGAGAGGAGGGA", "RBNS enrichment (R)": 1.37}
{"Sequence": "CAUUGUGAGGCCACUGGCAUGGAUGCUAUGCACCCCACCCUUUGCUGGCCAUAUUCCUCCUGUCCCCAUGCUGUGGCUCAUGCCAACCUAGCAAUAAGGAGCUCUGGAGA", "RBNS enrichment (R)": 0.186}
{"Sequence": "ACUGACUUACUAAUGCAGCAGGGACUUUUAUCACUGAGUAUUAUGACAGUGUGCAUCACCUCUGGGCCAAGGACAAGCCAUUGAUCUAAAUGCCUCAGAUGCCCGGGAGG", "RBNS enrichment (R)": 0.445}
{"Sequence": "CACAAAACCCACAACCCAGCACAAAGUCGACAAUGGAUUUUGUUUCUUUGAUUUAUUUUGCCAAUGGCAAAAAGACAAGACCUCGUUAGCACUGAGGAUUCUUGUUCCCU", "RBNS enrichment (R)": 0.503}
{"Sequence": "UAUUAUGAAAGUUUUACACUUAGUAUUCAUGUUAACAUUGGGUGCAAUAACUUAGUAGUACUUGCUUAGUUAUAAAUAACUGGAUCUUUCUGCUGACAACUUAGGUUGUA", "RBNS enrichment (R)": 0.267}
{"Sequence": "GAUGCAGAAUGAGGUAGCAUUCGAGUUGGAACCAAGAAGACUCUAAUGAUGUAUGCCCACCUUUCAUUUCUGCUAUUCAAGUUUUGACUAUGUAUCUAGCUUGUGCAAAA", "RBNS enrichment (R)": 12.3}
{"Sequence": "AUAAAGGGAGGUACCUAAAUACUCAAAUAAUGUAUAUAUUCUUUUUCAUAACAUAUGGAAUGCUUUAAGCAAUUGUUUUGAAAAAAAUCUGCGUAUCUUUGACUUAAUUG", "RBNS enrichment (R)": 0.524}
{"Sequence": "UUUUCUUAUUAAAGUAUGUAGUUUAAAAGUAAGACUUUUUUCCUGACAGUAUUAUGUAAUUUUUAGCGUGGGUAGAUGGGAGUGUCGCUUGUAUGUUACCAUACAGCUGA", "RBNS enrichment (R)": 0.82}
{"data": "Study 3", "target": "Interferon regulatory factor 5, full length, phosphomimetic (IRF5, Homo sapiens, UniProt Q13568-2, residues 1-514, S451D/S453D/S456D/S462D)", "technique": "protein-binding microarray", "molecule type": "double-stranded DNA, one strand shown", "sample": "in vitro", "concentration": "940 nM top", "setting": "60-bp whole probe", "added": "salmon DNA 0.4 mg/ml", "relative to": "random background probes", "direction": "higher = stronger binding", "constant ends, left off below": "GCCTAGCAC … GTCTTGATTCGCTTGACGCTGCTG"}
{"Sequence": "TTAGATTTCGGGTTTAGATTAGTGCTA", "fitted relative affinity": "1.61 z-score"}
{"Sequence": "GACGTACTGCTTATCCTGACGTGCTAG", "fitted relative affinity": "-0.0104 z-score"}
{"Sequence": "TTAGGTATCCTGCTCCTTTAGTGCTAG", "fitted relative affinity": "0.147 z-score"}
{"Sequence": "GACGATCTCAGTCTCTAGACGTGCTAG", "fitted relative affinity": "0.507 z-score"}
{"Sequence": "TTAGGACTCCTACTGCTTTAGTGCTAG", "fitted relative affinity": "-0.26 z-score"}
{"Sequence": "TCATTTCCCAAGTTTATAACTGTGCTA", "fitted relative affinity": "1 z-score"}
{"Sequence": "TCAGACCTCGTCTCTATCACTGTGCTA", "fitted relative affinity": "0.386 z-score"}
{"Sequence": "TCACGTTTACATTTTCCACTGTGCTAG", "fitted relative affinity": "0.933 z-score"}
{"Sequence": "TCAACTCTAATATTGAGACTGTGCTAG", "fitted relative affinity": "0.00624 z-score"}
{"Sequence": "TTAGAACTGGACACTGGGTTAGTGCTA", "fitted relative affinity": "-0.458 z-score"}
{"Sequence": "GAGGAACTGGGGTTTCGAGACGTGCTA", "fitted relative affinity": "1.11 z-score"}
{"Sequence": "TTAGGTATCGGTATCGGTTCGTGCTAG", "fitted relative affinity": "10.5 z-score"}
{"data": "Mixed results", "P1": "CABLES2 docking peptide (human); ICAKRSLCAAFSV; partner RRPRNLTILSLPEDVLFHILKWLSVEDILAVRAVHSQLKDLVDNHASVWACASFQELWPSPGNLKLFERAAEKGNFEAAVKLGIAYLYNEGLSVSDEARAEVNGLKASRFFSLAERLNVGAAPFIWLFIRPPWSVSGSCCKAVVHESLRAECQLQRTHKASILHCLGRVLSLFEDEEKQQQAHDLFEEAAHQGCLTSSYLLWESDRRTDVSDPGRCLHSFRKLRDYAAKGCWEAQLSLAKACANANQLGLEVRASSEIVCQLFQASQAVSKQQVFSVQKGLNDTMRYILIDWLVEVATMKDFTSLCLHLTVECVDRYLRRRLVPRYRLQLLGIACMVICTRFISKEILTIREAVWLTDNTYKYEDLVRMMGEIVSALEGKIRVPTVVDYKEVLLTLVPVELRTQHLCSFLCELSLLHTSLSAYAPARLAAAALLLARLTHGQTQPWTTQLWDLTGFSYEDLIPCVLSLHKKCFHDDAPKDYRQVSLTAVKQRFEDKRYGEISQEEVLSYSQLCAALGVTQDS", "P2": "SGO1 docking peptide (human); PLAKRALKYTDEK"}
{"Substance": "APPRKALFTYPKG", "tested on": "Saccharomyces cerevisiae", "test": "binding, competitive growth deep sequencing", "test system": "peptide, cyclin E1-Cln2 fusion strain", "conditions": "concentration not given, Cln2 score subtracted", "scale": "direction not given", "endpoint": "growth enrichment score", "result": 0.278}
{"Substance": "ASPLKKLFTSTGL", "tested on": "Saccharomyces cerevisiae", "test": "binding, competitive growth deep sequencing", "test system": "peptide, cyclin E1-Cln2 fusion strain", "conditions": "concentration not given, peptide library 1", "scale": "direction not given", "endpoint": "growth enrichment score", "result": 0.46}
{"Substance": "P1 S6A", "tested on": "CCNF, cyclin fold, Cln2 fusion (human)", "test": "yeast growth competition, sequencing", "test system": "yeast", "conditions": "strong parent motif", "scale": "relative to: not given, higher = stronger binding", "endpoint": "normalised enrichment score", "result": 1.55}
{"Substance": "P2 Y9A", "tested on": "CCNB1, cyclin fold, Cln2 fusion (human)", "test": "yeast growth competition, sequencing", "test system": "yeast", "conditions": "weak parent motif", "scale": "relative to: not given, higher = stronger binding", "endpoint": "normalised enrichment score", "result": 0.102}
{"note": "For quick reference, copied from above (study 3):"}
{"Sequence": "GACGTACTGCTTATCCTGACGTGCTAG", "fitted relative affinity": "-0.0104 z-score"}
{"Sequence": "TTAGGTATCCTGCTCCTTTAGTGCTAG", "fitted relative affinity": "0.147 z-score"}
{"Sequence": "GACGATCTCAGTCTCTAGACGTGCTAG", "fitted relative affinity": "0.507 z-score"}
{"Sequence": "TTAGGACTCCTACTGCTTTAGTGCTAG", "fitted relative affinity": "-0.26 z-score"}
{"Sequence": "TCATTTCCCAAGTTTATAACTGTGCTA", "fitted relative affinity": "1 z-score"}
{"Sequence": "TCAGACCTCGTCTCTATCACTGTGCTA", "fitted relative affinity": "0.386 z-score"}
